Experimental data collected from several papers.
A part holds a random share of what one study measured.

Study 1
Target: Histone acetyltransferase KAT6A, winged helix 1, GST fusion (KAT6A, Homo sapiens, UniProt Q92794, residues 1-85)
Technique: protein binding microarray
Molecule type: double-stranded DNA, one strand shown
Medium: in vitro
Tested at: not given
Notes: 8-mer, flanks averaged, mean of 2 arrays, mostly near background
Reference: not given
Direction: higher = stronger binding
Residues (chain): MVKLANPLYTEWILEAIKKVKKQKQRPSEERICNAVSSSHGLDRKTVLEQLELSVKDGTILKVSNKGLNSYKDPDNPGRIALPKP
Oligonucleotide	E-score
AGTACACG	0.0256
CAGCCGCC	0.347
AGGACGGA	0.0877
CCCTTTGC	-0.0557
CGGGCGAG	0.241
GAAAAGGA	-0.219
CGGAATAG	0.177
CCAGTATA	-0.152
TCAGATGA	-0.225
ACTGCACA	-0.277
GATCGCTA	0.0366
AGATAGGC	-0.223
AATTCGGC	-0.00104
CAAAAGCG	0.163
CGAACGTA	-0.0668
ATGAAGCC	0.141
AACTCGAC	-0.146
AACGGGGT	0.137

Study 2
Target: RNA binding protein fox-1 homolog 2, RRM domain, GST-SBP tag (RBFOX2, Homo sapiens, UniProt O43251-10, residues 100-194)
Technique: RNA Bind-n-Seq
Molecule type: RNA
Medium: in vitro
Tested at: 365 nM
Notes: natural RNA segment, single round, ends assumed
Reference: no-protein control
Direction: higher = stronger binding
All sequences stand within: GGGAGUUCUACAGUCCGACGAUC … UGGAAUUCUCGGGUGCCAA
Construct (chain): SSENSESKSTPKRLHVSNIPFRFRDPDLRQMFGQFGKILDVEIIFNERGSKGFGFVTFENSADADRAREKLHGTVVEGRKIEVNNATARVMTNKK
Oligonucleotide	RBNS enrichment (R)
CCAACUUCCACAAAACAACUCAAGGCCUCCAAGUAUCAAGAUGUCCUGAAAUUUUUUUUUUUUUAGCAGAAUCUGAAAUUAGAUUUUGUACACUCCCUGGAAUGUAAUUG	0.713
CUGAUUUGAUAGAUUUUUCUUUUUAAAUAAAACUUCACAGCCUGCACAGUUGUUACGCAUACUACAUGGUAUGUUACAAUUAGGGUUUCCUUGCCUCUUUACAGUACACU	0.54
UGUUAACCGACUAUAUACUGAAAGUUCUGUGUCCGACAUAGAGCAGCGUUAUGGUGGGAGCCGCUUCCUGUUCUGUGAACCCCAGGCAGGCUUGACUUCCUAUGGUGUUA	0.258
AUCUUAAGUAUUGUAAGCUGCUGUGUAUGGAUCUCAUUGUAGUCAUACUUGUUUUCCCCAGAUGAGGCACUUGGUGAAUAAAGGAUGCUGGGAAAACUGUGUGUUAUAUU	1.7
CGGGCUGGCAGGCGCUGACUGCCUCAGCCCAUGUGCCCUGCCGGCCAGGGCGUGGCCUCCCCAAGGCUGUGGUGCCCCUUCUGGCUCCCCCAGGUCAGGUCCGCGCCCUU	0.237
CCAUGUUUAGGAAACACACUGUACCCUGCUCCCAGCAUCACAAGGCACUUGUCUACAAGUGUGUCCCAACACAGUCCUGGGCCACUUUCCCCACCCUGGGGAGCACAUAA	1.33
AAUGGUAACUUUAUUUAUUUAAAAACAAAGAAACACAAAUAGUUACUAUUAAACUGAUUAAGGCUGUUUAUUUUUACUCCUAGAAAUGGUCAUAUGAAGUAGAUGUGCAA	1.56
UUAGGCAGACGUACUUGUCUCCACUCCCCACUCCAUCUCAGCCCAACUCCAGACACCCUAGGGCUGACCAGCUCCAUUGAGACCCUGUUAUUUCUCUGCUUUUCUCUUUC	0.948
CUGACCAGGCCCCUCCCCUAAGACUUCUUGGAUAUUUCCCAGGAGAAUCCCACAUUCACCGCCAAACCCCUAUCCCUACCCAACACAAGCUGCCCUCCUGAAAGGCAAGG	0.877
UCAUUUUCCCCAGACACUACAUUUGGAUACAGGUGCCAAAGAACAUUAUUAAGGAAUUAUUUAGAAACAAUGUGUCUAGUUUAAGAAAGUGGUUUUCAGUAUUGUGACAA	0.506
AGGUGCCAGACUUUCUGUUCUGUCUGCCAUGGGUUUGUCCAGCUCAGGUAGCUCUAGGAGCACCAUCCUGCCCUAGCAGAGCCCAGGCCUUGCCCUCAUGAAGCAUCAUU	0.278
CACCAAUGAGUGAAAGGGAUCGUGGGUCAGGGACACCGAGAGAGUGAGGUCACUUCCACUUCAAACCUUCAGUGAGGGGGUGGGAUGGAGAGAAUGCUGAAUCUUUUUUU	0.294

Study 3
Target: Sal-like protein 4, full length isoform B (SALL4, Homo sapiens, UniProt Q9UJQ4-2, residues 1-616)
Technique: universal PBM
Molecule type: double-stranded DNA, one strand shown
Medium: in vitro
Tested at: not given
Notes: 8-mer, flanks averaged, mean of replicates
Direction: higher = stronger binding
Target sequence (chain): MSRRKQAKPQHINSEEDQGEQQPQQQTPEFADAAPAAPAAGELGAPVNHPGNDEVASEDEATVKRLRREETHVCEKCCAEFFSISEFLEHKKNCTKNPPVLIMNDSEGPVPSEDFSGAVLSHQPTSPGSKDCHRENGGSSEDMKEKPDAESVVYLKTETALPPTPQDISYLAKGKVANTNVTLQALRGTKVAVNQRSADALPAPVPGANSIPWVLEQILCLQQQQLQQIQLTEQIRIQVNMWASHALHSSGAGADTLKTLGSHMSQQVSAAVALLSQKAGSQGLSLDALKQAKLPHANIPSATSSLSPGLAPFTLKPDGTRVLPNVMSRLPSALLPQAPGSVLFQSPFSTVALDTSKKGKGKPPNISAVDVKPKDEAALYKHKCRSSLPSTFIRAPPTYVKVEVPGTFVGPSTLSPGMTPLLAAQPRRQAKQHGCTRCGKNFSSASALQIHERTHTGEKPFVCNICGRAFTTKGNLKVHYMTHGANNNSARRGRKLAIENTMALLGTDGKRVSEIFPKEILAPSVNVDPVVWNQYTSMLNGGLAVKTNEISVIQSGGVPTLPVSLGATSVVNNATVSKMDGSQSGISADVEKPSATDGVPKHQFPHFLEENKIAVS
Oligonucleotide	E-score
ACTCCCTG	-0.109
GACGGCCA	-0.215
GGACACCC	-0.291
ACCGCTAC	-0.208
CTTGAGGC	-0.241
ACTATTTC	0.238
ATAGGTCA	0.17
AAGTTATA	0.365
TACGTGGA	-0.0369
ACCTTCGA	0.0975
TACAGAAA	0.208
GCCGCGAA	-0.224
AACGTCGC	-0.236
AATAAACC	0.235
CCCGGACA	-0.221
CTACAAGA	0.0454
AGAAGAGG	0.018
GCCGGTAA	-0.147
AAGACAAT	0.271
TAGCTAAA	0.144
CGGACCAC	-0.216
GATTGGCC	-0.136
CGTTCTAA	0.0659
AATATCGG	0.194
CTCTCCAA	-0.0164

Study 4
Target: RING finger protein unkempt homolog, zinc fingers 1-6, GST-SBP tag (UNK, Homo sapiens, UniProt Q9C0B0, residues 30-357)
Technique: RNA Bind-n-Seq
Molecule type: RNA
Medium: in vitro
Tested at: not given
Notes: RNA with constant flanks, human-mouse chimeric sites, ends assumed
Reference: input RNA pool
Direction: higher = stronger binding
All sequences stand within: GGGAGUUCUACAGUCCGACGAUC … CAACAGAGGAUUGAGCAUCA
Residues (chain): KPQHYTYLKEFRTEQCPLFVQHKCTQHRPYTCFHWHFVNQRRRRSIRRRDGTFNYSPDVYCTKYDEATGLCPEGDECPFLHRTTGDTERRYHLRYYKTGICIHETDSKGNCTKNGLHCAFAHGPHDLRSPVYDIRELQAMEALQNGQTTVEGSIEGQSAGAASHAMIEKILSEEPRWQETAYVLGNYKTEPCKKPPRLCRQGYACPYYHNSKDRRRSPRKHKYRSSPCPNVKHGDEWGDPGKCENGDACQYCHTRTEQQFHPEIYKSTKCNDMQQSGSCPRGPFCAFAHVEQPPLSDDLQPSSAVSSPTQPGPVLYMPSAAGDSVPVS
Oligonucleotide	bound/input enrichment [ratio]
UCCUGGUCGUGUCCCAGUGCAGGACGAUGUGAACAAAUCGAAGACAUGGACCCUCUAUUGUAGUUCUUGAUUCUCGAAAUGUGCUAUUAUUGUUUGUCUUUUUUUUUUUUUUUUUAAAGA	0.908
UAAAUUAGGGCUGCCGUUUUCUGUUUCGCCCUGAGCUGCGGAAAGCCAGAAGAUUUUAUCUAGUUUGUACAAGGCUGCUGGUGUUCCCUCUUUUUUUCCACGAGGGUGUUUUUGGCUGCA	0.523
GAGUCGAGCAAACUUGAAACAAUUCGUUAUCUUGCAGAGCUUCGGUGCACUUGCUUGGCGAUAGCAUUGGGGUUUUAUAGGUUCUGGAAGGAGAACUGACGAUGAUGUCCUGCUGUGUGC	0.192
CACAGAGCAGCACCUACCCCCUCCUCCUUUCCACACCUGCAAACUCUUUUACUUGGGCUGAAUAUUUAGUGUAAUUAACAUCGCAGCUUGAGGGCUCCCUGUGGCAAUUCCCGGAUUAAA	2.18
GGUGGGGUGGUCAUUGCCGUUUGAGCUGCUGAUUUUCAUGAGUCGCCCAUUCAGAACUCGUGUAGGGUUGACAAUGUGGGGGGGUGGGGGAUCCAGCUUAUUCUUUUAUUUUCAAGUCCA	0.559
CAGCGCCGAGGCCGCGGUUUCCCCCUGGGCCUCCCCAGCAGCAGCCAUGGGCAUCAAAUUUUUAGAAGUUAUUAAACCAUUCUGUGCAGUUCUACCAGAAAUUCAGAAACCGGAAAGGAA	6.89
AAACAUCUUCUCAAGCACAUUCCAAGCGAGAAUGCUGGGGUGAUCAUUGUUGCCCAUGUGCCUUCUGACUGAGCUUUAAUGCUGUUCCAUGUUACAUCUUUCCUUCACUCCAGAAUUGUU	0.141
UUGCUACUGACUCCCUGGGUCAAGUUCCUGUGGGAGUCAUACAGGCAGUGUUUGGACCUUCUUCGAAACAAUUCUAGAGUAGAGCGCCUGUACCAUGAUAUCGCCCAACAAGCUUUCAAA	0.109
AUGGAGAAGGAUUCUCUGCCCCGCUUUGUGCGCUCUGAGUUUUAUCAGGAGCUAAUCAAGUAGUCAUCUGGUCAGGCUUCCAAAAGUUGCCCUGUGAUAUUUCCUCCAUCCUUUGUAGCA	0.186
AUGGAACAUUUCGAUGCGUCACUCAGUACCUAUUUCAAGGCCUUCCUGGGCCCCCGAGAUACAAGAGUCAAAGGAUGGUUCCUCCUGGACAAUUAUAUACCCACAUUUGUCUGUUCUGUU	0.0882
GACUUUGGGACUGGUCCUCGUAAUGCAGCCUUCUAUAGCCCUCAUGGACAUAUAUUAGUGCUGGCUGGAUUUGGAAAUCUUCGAGGACAAAUGGAAGUAUGGGAUGUGAAAAACUACAAG	0.431

Study 5
Target: Centromere-binding protein 1, full length, His-tagged (CBF1, Saccharomyces cerevisiae, UniProt P17106, residues 1-351)
UniProt P17106, sequence (whole entry, looked up): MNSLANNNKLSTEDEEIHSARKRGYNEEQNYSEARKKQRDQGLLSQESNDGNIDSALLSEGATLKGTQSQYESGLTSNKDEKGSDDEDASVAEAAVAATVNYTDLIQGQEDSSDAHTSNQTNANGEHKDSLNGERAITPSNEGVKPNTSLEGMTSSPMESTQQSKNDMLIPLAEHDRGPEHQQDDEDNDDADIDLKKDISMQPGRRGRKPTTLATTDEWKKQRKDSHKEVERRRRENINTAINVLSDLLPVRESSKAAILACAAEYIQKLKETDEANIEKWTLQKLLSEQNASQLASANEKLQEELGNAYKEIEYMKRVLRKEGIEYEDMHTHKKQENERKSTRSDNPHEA
Technique: competition protein-binding microarray
Molecule type: double-stranded DNA, one strand shown
Medium: in vitro
Tested at: 2 µM
Notes: whole 60-bp probe, lowest competitor level
Together with: Pho4 competitor, 0.05 µM
Direction: higher = stronger binding
All sequences stand within: … GTCTTGATTCGCTTGACGCTGCTG
Oligonucleotide	fluorescence intensity
CTTCTGTAAATTTGTCACATTACTTGACGCGCCCCG	136 a.u.
AGAGCGTCGTTTGCTTACGTGATGGTTAAGTGCCTT	65.8 a.u.
AATCATTTAGTCCATCACGTCAACCTGTCTAAAATA	102 a.u.
CGTCCTAGCGATTGATGCGTGGGTGCCATGAGGAAG	73.3 a.u.
CCCATAGATTGCGGGCACATGGCGCAGTTGGTAGCG	98.2 a.u.
CATACCCAACCTTGTAATGTGGGTGAAGATATTTGT	65.1 a.u.
CTGGGGATGTTTCCGCACATGAGGGGGGCAGAGGTT	176 a.u.
TGCGCAACAACTTGATTTGTGGGTGTATGTCTAGAA	72.2 a.u.
TCAATTTCGAACGGAAGCGTGCGGACTCTGAGTTTT	64.1 a.u.
ACAAATCAAGAATCGCACGTGAAAATATCAAGCGCG	884 a.u.
AAATTACTAAGTTTTCACGTGCAGTACCCCGTATGA	831 a.u.
AAAGCGGTAATTTGGGCCGTGGGTGCAGATATCTAT	83.1 a.u.
TTCAGCACAACCGACCACGTGAGACGAGGGTCGAAG	1520 a.u.
AAAGCGGTAATTTGCCTGGTGGGTGCAGATATCTAT	67.4 a.u.
GAATATAGAGGTACGCTCGTGTCCAAGGACAACTAC	72 a.u.
TATATATGCATTCACCACGTTCCCGTTAGTCAAACG	103 a.u.
CTTCTGTAAATTTGGATTGTGGGTGGACGCGCCCCG	88.1 a.u.
CGTCCTAGTGATTTTCACGTGGCGTCCATGAGGAAG	815 a.u.
AAATTACTAAGTTACCACGTGTTTTACCCCGTATGA	1760 a.u.
ACCTTAAACACTCACCACGTGCAAACAACAGAATAT	1480 a.u.
TATATTGTTTGTTTGCACGTTTGATAAGTCCCTTAG	113 a.u.
AGTGTCTGGGATGCGCTCGTGACGGTCGGCAGAGCA	160 a.u.
AAAGCGGTAATTTGACCTGTGGGTGCAGATATCTAT	75.9 a.u.
TGCGCAACAACTTGTCACACGACTTTATGTCTAGAA	150 a.u.
TGGCTTTGCTAACGACATGCGTGAAGAAAAGCGGTA	73 a.u.

A few entries again (study 3):
Oligonucleotide	E-score
CGGACCAC	-0.216
CCCGGACA	-0.221
CTCTCCAA	-0.0164
ACTCCCTG	-0.109
ACCTTCGA	0.0975
AACGTCGC	-0.236
ATAGGTCA	0.17
